Measurements from different studies.
Compare with care: the assays were run in different laboratories. ± marks the error that the study gave.
B1: human CAP1; sequence looked up; chain ADMQNLVERLERAVGRLEAVSHTSDMHRGYADSPSKAGAAPYVQAFDSLLAGPVAEYLKISKEIGGDVQKHAEMVHTGLKLERALLVTASQCQQPAENKLSDLLAPISEQIKEVITFREKNRGSKLFNHLSAVSESIQALGWVAMAPKPGPYVKEMNDAAMFYTNRVLKEYKDVDKKHVDWVKAYLSIWTELQAYIKEFHTTGLAWSKTGPVAKELSGLPSGPSAGSCPPPPPPCPPPPPVSTISCSYESASRSSLFAQINQGESITHALKHVSDDMKTHKNPALKAQSGPVRSGPKPFSAPKPQTSPSPKRATKKEPAVLELEGKKWRVENQENVSNLVIEDTELKQVAYIYKCVNTTLQIKGKINSITVDNCKKLGLVFDDVVGIVEIINSKDVKVQVMGKVPTISINKTDGCHAYLSKNSLDCEIVSAKSSEMNVLIPTEGGDFNEFPVPEQFKTLWNGQKLVTTVTEIAG
B2: DLL4 27-400 G28S/F107L/I143F/H194Y/L206P/N257P/T271L/F280Y/S301R/Q305P (Homo sapiens, UniProt Q9NR61); sequence looked up; chain SSVFQLQLQEFINERGVLASGRPCEPGCRTFFRVCLKHFQAVVSPGPCTFGTVSTPVLGTNSFAVRDDSSGGGRNPLQLPLNFTWPGTFSLIIEAWHAPGDDLRPEALPPDALISKFAIQGSLAVGQNWLLDEQTSTLTRLRYSYRVICSDNYYGDNCSRLCKKRNDYFGHYVCQPDGNPSCLPGWTGEYCQQPICLSGCHEQNGYCSKPAECLCRPGWQGRLCNECIPHPGCRHGTCSTPWQCLCDEGWGGLYCDQDLNYCTHHSPCKNGATCRNSGPRSYTCTCRPGYTGVDCELELSECDSNPCRNGGSCKDQEDGYHCLCPPGYYGLHCEHSTLSCADSPCFNGGSCRERNQGANYACECPPNFTGSNCE
B3: human SMC3; sequence looked up; chain MYIKQVIIQGFRSYRDQTIVDPFSSKHNVIVGRNGSGKSNFFYAIQFVLSDEFSHLRPEQRLALLHEGTGPRVISAFVEIIFDNSDNRLPIDKEEVSLRRVIGAKKDQYFLDKKMVTKNDVMNLLESAGFSRSNPYYIVKQGKINQMATAPDSQRLKLLREVAGTRVYDERKEESISLMKETEGKREKINELLKYIEERLHTLEEEKEELAQYQKWDKMRRALEYTIYNQELNETRAKLDELSAKRETSGEKSRQLRDAQQDARDKMEDIERQVRELKTKISAMKEEKEQLSAERQEQIKQRTKLELKAKDLQDELAGNSEQRKRLLKERQKLLEKIEEKQKELAETEPKFNSVKEKEERGIARLAQATQERTDLYAKQGRGSQFTSKEERDKWIKKELKSLDQAINDKKRQIAAIHKDLEDTEANKEKNLEQYNKLDQDLNEVKARVEELDRKYYEVKNKKDELQSERNYLWREENAEQQALAAKREDLEKKQQLLRAATGKAILNGIDSINKVLDHFRRKGINQHVQNGYHGIVMNNFECEPAFYTCVEVTAGNRLFYHIVDSDEVSTKILMEFNKMNLPGEVTFLPLNKLDVRDTAYPETNDAIPMISKLRYNPRFDKAFKHVFGKTLICRSMEVSTQLARAFTMDCITLEGDQVSHRGALTGGYYDTRKSRLELQKDVRKAEEELGELEAKLNENLRRNIERINNEIDQLMNQMQQIETQQRKFKASRDSILSEMKMLKEKRQQSEKTFMPKQRSLQSLEASLHAMESTRESLKAELGTDLLSQLSLEDQKRVDALNDEIRQLQQENRQLLNERIKLEGIITRVETYLNENLRKRLDQVEQELNELRETEGGTVLTATTSELEAINKRVKDTMARSEDLDNSIDKTEAGIKELQKSMERWKNMEKEHMDAINHDTKELEKMTNRQGMLLKKKEECMKKIRELGSLPQEAFEKYQTLSLKQLFRKLEQCNTELKKYSHVNKKALDQFVNFSEQKEKLIKRQEELDRGYKSIMELMNVLELRKYEAIQLTFKQVSKNFSEVFQKLVPGGKATLVMKKGDVEGSQSQDEGEGSGESERGSGSQSSVPSVDQFTGVGIRVSFTGKQGEMREMQQLSGGQKSLVALALIFAIQKCDPAPFYLFDEIDQALDAQHRKAVSDMIMELAVHAQFITTTFRPELLESADKFYGVKFRNKVSHIDVITAEMAKDFVEDDTTHG
B4: CCL3 mature (UniProt P10147); 125I label; chain SLAADTPTACCFSYTSRQIPQNFIADYFETSSQCSKPGVIFLTKRSRQVCADPSEEWVQKYVSDLELSA
Chain of UniProt Q12146 (whole entry, looked up): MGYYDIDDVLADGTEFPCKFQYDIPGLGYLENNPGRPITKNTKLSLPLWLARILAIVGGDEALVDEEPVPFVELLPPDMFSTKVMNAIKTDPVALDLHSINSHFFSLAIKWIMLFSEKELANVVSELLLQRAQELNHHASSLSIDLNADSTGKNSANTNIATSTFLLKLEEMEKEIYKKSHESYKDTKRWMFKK
Chain of UniProt P12314 (whole entry, looked up): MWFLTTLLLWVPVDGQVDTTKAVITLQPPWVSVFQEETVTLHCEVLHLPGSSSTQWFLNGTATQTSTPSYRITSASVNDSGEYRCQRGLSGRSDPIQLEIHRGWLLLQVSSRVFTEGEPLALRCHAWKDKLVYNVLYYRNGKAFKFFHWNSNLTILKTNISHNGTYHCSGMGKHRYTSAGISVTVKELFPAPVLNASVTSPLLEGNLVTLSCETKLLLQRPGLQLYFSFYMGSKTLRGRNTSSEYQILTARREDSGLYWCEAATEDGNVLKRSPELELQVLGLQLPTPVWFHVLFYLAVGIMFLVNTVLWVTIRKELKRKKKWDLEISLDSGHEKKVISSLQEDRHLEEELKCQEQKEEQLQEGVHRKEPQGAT
Chain of UniProt P04695 (whole entry, looked up): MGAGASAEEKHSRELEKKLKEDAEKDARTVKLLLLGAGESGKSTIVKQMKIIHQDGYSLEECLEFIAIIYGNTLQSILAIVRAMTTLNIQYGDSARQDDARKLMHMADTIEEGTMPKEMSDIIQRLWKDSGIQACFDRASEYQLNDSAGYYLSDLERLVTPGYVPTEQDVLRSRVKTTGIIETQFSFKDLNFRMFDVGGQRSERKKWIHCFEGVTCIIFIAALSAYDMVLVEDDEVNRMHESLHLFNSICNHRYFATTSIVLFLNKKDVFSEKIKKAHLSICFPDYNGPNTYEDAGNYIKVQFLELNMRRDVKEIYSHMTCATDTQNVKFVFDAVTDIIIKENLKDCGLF
Chain of UniProt Q96NY8 (whole entry, looked up): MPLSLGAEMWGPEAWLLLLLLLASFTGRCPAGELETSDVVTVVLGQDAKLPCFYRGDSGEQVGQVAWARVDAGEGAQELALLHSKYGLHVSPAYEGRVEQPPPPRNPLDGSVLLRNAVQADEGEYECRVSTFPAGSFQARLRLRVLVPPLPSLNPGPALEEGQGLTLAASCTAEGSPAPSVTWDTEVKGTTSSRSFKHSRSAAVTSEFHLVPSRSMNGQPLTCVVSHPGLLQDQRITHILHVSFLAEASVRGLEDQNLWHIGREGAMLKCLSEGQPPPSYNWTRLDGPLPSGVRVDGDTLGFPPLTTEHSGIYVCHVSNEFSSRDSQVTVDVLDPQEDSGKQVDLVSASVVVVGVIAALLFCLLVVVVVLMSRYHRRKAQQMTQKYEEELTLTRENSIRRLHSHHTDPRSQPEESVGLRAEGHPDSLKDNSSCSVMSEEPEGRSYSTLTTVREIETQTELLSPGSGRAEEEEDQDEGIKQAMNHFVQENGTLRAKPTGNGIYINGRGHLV
Chain of UniProt P40359 (whole entry, looked up): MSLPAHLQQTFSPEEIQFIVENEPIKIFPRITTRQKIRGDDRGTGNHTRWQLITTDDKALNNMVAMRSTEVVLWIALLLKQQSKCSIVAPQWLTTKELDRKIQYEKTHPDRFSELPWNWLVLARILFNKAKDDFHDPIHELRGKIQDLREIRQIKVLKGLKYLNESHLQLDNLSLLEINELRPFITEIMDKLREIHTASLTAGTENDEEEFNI
Chain of UniProt Q13185 (whole entry, unmodified, looked up): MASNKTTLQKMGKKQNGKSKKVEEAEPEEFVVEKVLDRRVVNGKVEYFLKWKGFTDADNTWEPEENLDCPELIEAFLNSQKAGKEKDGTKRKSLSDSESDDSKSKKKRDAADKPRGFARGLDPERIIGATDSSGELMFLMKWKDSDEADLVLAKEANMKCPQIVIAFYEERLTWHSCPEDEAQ
Chain of UniProt Q04721 (whole entry, looked up): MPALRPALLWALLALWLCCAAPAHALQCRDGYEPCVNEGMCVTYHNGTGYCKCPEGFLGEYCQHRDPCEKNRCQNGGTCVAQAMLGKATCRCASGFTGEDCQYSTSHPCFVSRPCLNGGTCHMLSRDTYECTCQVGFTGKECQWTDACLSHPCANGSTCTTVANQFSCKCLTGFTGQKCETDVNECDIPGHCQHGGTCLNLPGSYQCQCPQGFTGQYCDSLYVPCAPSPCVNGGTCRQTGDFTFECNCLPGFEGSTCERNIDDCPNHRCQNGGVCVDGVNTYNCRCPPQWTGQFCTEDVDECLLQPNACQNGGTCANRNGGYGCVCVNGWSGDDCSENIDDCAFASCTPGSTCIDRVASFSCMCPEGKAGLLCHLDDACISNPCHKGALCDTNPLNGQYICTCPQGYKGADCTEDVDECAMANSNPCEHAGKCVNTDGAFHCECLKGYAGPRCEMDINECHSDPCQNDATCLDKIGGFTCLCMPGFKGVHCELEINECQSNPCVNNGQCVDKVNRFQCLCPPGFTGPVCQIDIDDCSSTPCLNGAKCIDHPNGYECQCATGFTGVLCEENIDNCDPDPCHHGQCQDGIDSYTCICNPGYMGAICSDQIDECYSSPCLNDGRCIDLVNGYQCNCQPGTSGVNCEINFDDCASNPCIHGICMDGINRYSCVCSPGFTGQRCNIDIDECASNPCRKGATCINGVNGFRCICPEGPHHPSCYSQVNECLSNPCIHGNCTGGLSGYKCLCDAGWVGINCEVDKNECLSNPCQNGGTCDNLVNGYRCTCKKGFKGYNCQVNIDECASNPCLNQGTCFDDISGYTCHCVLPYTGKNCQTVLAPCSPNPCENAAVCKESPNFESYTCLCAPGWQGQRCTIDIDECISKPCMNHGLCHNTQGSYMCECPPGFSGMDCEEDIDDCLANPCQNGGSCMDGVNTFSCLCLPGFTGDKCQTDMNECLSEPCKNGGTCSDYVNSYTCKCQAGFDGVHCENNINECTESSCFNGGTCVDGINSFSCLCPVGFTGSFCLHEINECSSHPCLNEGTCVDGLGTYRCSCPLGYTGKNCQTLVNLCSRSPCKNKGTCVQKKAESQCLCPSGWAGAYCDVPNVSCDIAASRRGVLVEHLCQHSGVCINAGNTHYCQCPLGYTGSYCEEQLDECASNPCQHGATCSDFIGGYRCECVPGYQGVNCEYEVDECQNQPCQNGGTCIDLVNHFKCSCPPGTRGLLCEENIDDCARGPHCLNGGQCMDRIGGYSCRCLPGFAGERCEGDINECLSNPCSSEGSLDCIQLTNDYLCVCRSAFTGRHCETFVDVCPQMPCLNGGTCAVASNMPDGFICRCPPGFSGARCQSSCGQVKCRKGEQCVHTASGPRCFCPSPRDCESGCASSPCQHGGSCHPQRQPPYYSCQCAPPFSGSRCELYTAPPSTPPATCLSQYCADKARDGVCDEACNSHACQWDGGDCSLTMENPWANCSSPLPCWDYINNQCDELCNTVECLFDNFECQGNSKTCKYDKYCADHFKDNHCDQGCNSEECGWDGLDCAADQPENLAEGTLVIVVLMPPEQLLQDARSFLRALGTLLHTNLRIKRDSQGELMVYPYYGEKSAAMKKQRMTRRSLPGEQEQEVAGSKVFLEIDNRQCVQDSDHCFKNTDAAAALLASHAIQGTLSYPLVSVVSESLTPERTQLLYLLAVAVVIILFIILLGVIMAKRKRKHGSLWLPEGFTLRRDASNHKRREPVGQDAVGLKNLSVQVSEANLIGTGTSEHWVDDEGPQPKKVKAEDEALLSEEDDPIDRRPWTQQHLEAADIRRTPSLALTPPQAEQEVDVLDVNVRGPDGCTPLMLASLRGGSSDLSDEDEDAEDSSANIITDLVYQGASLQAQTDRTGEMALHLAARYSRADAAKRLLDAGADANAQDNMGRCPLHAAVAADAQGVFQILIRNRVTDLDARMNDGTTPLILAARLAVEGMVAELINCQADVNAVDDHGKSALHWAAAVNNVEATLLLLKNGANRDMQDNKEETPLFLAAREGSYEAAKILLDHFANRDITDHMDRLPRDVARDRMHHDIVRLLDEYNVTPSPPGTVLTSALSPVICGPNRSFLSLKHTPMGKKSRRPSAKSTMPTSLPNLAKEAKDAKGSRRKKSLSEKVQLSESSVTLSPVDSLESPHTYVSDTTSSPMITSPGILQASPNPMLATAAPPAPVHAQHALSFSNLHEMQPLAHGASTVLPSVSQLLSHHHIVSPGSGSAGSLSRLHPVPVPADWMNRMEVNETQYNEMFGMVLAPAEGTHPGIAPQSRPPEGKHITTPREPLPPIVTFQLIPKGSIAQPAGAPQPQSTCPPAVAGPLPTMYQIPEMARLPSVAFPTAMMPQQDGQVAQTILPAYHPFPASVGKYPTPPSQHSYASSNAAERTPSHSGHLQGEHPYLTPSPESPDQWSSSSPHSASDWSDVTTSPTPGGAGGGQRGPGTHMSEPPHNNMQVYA

With `ACPFGCMKNWSWAIWCTNK (Bicycle 69 bicyclic peptide; C-terminal amide/TATA scaffold, three cysteines cyclised)` the Ki was > 10 µM (NECTIN4 32-349 (Homo sapiens, UniProt Q96NY8); fluorescence polarisation; peptide).
`APVDSMLKDMATIILSTFLLIGWVAFIITYPLSMH (IRE1α 435-469; N-terminal rhodamine label)`: “subunits per oligomer” 4.33 ± 0.187 (ERN1 435-469 peptide, N-terminal FITC (Homo sapiens); FRET; peptide).
`FGB (Homo sapiens, UniProt P02675)` — result for cross-linked residues: “K353 to K346” (CCDC30 (Homo sapiens, UniProt Q5VVM6); cross-linking MS; added: DSSO).
`trastuzumab IgG1 (Homo sapiens)` has a kon of 550000 M⁻¹ s⁻¹ (FCGR1A (Homo sapiens, UniProt P12314); SPR).
`FGG (Homo sapiens, UniProt P02679)` — result for cross-linked residues: “K177 to K191” (HTR2A (Homo sapiens, UniProt P28223); cross-linking MS; added: DSSO).
For `CBX3 (Homo sapiens, UniProt Q13185)`, the binding reduction was 23% (SUV39H1 catalytic domain, C-terminal truncation (Homo sapiens); pull-down; 6 µM, added: chaetocin 0.1 µM; higher = less binding).
`RGS9/GNB5 (Bos taurus)` has a Gαt associated of 10% (GNAT1 (Bos taurus, UniProt P04695); co-IP; baseline: total).
With `colistin` the MIC was 2 mg/L (Enterobacter cloacae; clinical isolate RKI 546/13).
`ARTKQTARKSTG (histone H3 peptide 1-12; K4me1)`: “molecule per partner” 0.86 (Ehd3 417-547 Y446A (Oryza sativa, UniProt Q6ZJM9); ITC; peptide).
`ecfA (Listeria monocytogenes)` — result for “subunits per oligomer”: 1 (EcfA' (Listeria monocytogenes); SEC-MALS).
`PSF2 (Saccharomyces cerevisiae, UniProt P40359)` — result for interaction screen: “cross-linked” (PSF3 (Saccharomyces cerevisiae, UniProt Q12146); cross-linking MS; hits only).
`B1 (human CAP1)` — result for “log2 fold change”: 0.2 (PP6C (human); co-immunoprecipitation, IP-MS; CYB5R4 knockout cells; concentration not given; baseline: CYB5R4 knockout over parental).
With `B2` the affinity enhancement was 670 fold (NOTCH2 221-530 (Homo sapiens, UniProt Q04721); SPR; baseline: WT, higher = stronger binding).
`ALB (Homo sapiens, UniProt P02768)`: cross-linked residues “K402 to K211” (NUBP1 (Homo sapiens, UniProt P53384); cross-linking MS; added: DSSO).
For `B3 (human SMC3)`, “log2 fold change” read -0.76 (PP6C (human); co-immunoprecipitation, IP-MS; CYB5R4 knockout cells; concentration not given; baseline: CYB5R4 knockout over parental).
Under cross-linked residues, `FGA (Homo sapiens, UniProt P02671)` is recorded as “K202 to K134” (TSEN2 (Homo sapiens, UniProt Q8NCE0); cross-linking MS; added: DSSO).
For `B4 (CCL3 mature)`, the remaining binding was 20% (CCR5 (Homo sapiens, UniProt P51681); radioligand binding; HEK-R5; added: MβCD 5 mM; baseline: untreated control, higher = more binding).

Some of these lines once more:
`ARTKQTARKSTG (histone H3 peptide 1-12; K4me1)`: “molecule per partner” 0.86 (Ehd3 417-547 Y446A (Oryza sativa, UniProt Q6ZJM9); ITC; peptide).
`APVDSMLKDMATIILSTFLLIGWVAFIITYPLSMH (IRE1α 435-469; N-terminal rhodamine label)`: “subunits per oligomer” 4.33 ± 0.187 (ERN1 435-469 peptide, N-terminal FITC (Homo sapiens); FRET; peptide).
